Literature values, collected from citations in different studies.
Compare with care: the assays were run in different laboratories. Values joined by “and” are separate records of one study, mostly repeats; a detail may differ. In brackets after ≈: the same amount, converted by molar mass.

C[Si](C)(C)O[Si](C)(C)O[Si](C)(C)C  log KAW (25 °C): 2.52
COc1ccc2c(c1)c(CC(=O)O)c(C)n2C(=O)c1ccc(Cl)cc1  free Cmax (plasma): 69.9 nM
Cc1cc(-c2nccc3c2ccn3CC(=O)Nc2ccc(-c3cnccn3)cn2)ccn1  AUC(0-24 h), total (rat; 20 mg/kg/day, 1 month, repeat dosing): 49.4 µM·h
CC(C)NCC(O)COc1cccc2ccccc12 (stereo not drawn)  plasma clearance (human; average of reported values): 12.3 mL/min/kg
CCCN(CCC)S(=O)(=O)c1ccc(C(=O)O)cc1  HSA binding, literature value (human serum albumin; concentration not given): 95%
CC(=O)C(C)n1ncn(-c2ccc(N3CCN(c4ccc(OC[C@H]5CO[C@](Cn6cncn6)(c6ccc(Cl)cc6Cl)O5)cc4)CC3)cc2)c1=O (stereo partly drawn)  pKa (basic): 3.7
Nc1nc2[nH]cc(CCc3ccc(C(=O)N[C@@H](CCC(=O)O)C(=O)O)cc3)c2c(=O)[nH]1  solubility (water): < 1000 µg/mL
Cc1ccc([C@@H]2O[C@H](CO)[C@@H](O)[C@H](O)[C@H]2O)cc1Cc1ccc(-c2ccc(F)cc2)s1  tmax (human, preserved kidney function; 300 mg, steady state, median): 1 h
Nc1nc2c(ncn2COCCO)c(=O)[nH]1  oral bioavailability (human): 20%
Oc1ccc(C(c2ccc(O)cc2)(C(F)(F)F)C(F)(F)F)cc1  AUC (item: free (unconjugated) compound; Sprague-Dawley rat, female; oral gavage, 110 mg/kg): 4.38 µM·h
CC(=O)O[C@H]1C(=O)[C@@]2(C)[C@H]([C@H](OC(=O)c3ccccc3)[C@]3(O)C[C@H](OC(=O)[C@H](O)[C@@H](NC(=O)c4ccccc4)c4ccccc4)C(C)=C1C3(C)C)[C@]1(OC(C)=O)CO[C@@H]1C[C@@H]2O  grade 4 peripheral neuropathy incidence (advanced esophageal cancer patients; 80 mg/m2 weekly, monotherapy): 0%
CNC(=O)c1c(C)oc2cc(Oc3ncnc4cc(OC)c(OC)cc34)ccc12  elimination half-life (human): ~42 h
COc1cc2nc(N(C)CCCNC(=O)C3CCCO3)nc(N)c2cc1OC (stereo not drawn)  diarrhoea incidence (human; concentration not given, clinical): 0%
Cn1cncc1-c1c(F)cncc1NC(=O)c1c(N)nn2cc(F)cnc12  grade ≥3 anaemia incidence (patients with advanced solid tumours; 180 mg once daily, first treatment cycle): 73%
O=C1Nc2ccc(Cl)cc2[C@@](C#CC2CC2)(C(F)(F)F)O1  clearance (human): 23 L/h
CCN(CC)CCN(CCNCCc1ccc(O)c2[nH]c(=O)sc12)C(=O)CCOCCc1cccc2ccccc12  Clast (human, plasma; inhaled, dose not given): 0.052 nM
C#C[C@]1(CO)O[C@@H](n2cnc3c(N)nc(F)nc32)C[C@@H]1O  plasma Cmax decrease (human; 30 mg, together with: high-fat meal; reference: fasted): 49%
C[C@@H](Oc1cc(-c2cnn(C3CCNCC3)c2)cnc1N)c1c(Cl)ccc(F)c1Cl  crossover pressure (supercritical CO2): 145 to 165 bar
CC#CC(=O)N1CCC[C@H]1c1nc(-c2ccc(C(=O)Nc3ccccn3)cc2)c2c(N)nccn12  AUC(0-last) (human; 100 mg twice daily): 1850 ng·h/mL
Cc1ccc(-c2cc(C(F)(F)F)nn2-c2ccc(S(N)(=O)=O)cc2)cc1  Cmax (plasma; concentration not given, total, steady state): 1850 nM
COCCc1ccc(OCC(O)CNC(C)C)cc1 (stereo not drawn)  AUC(0-24 h) (human fasted; 400 mg multiple doses, day 7, mean): 3450 ng·h/mL
Clc1cc2nc(c1)CNCCNCCNC2  pCu (aqueous solution; Cu(II) 1 µM, ligand 10 µM): 16.2
CN(C)C(=O)c1cc2cnc(Nc3ccc(N4CCNCC4)cn3)nc2n1C1CCCC1  adverse event incidence (item: dyspnea; advanced solid tumour or lymphoma patients; dose not given, 3 weeks on 1 week off, any grade; reference: patients): 20.9%
CC(C)[C@H](N)C(=O)OCC(CO)OCn1cnc2c(=O)[nH]c(N)nc21 (stereo partly drawn)  oral bioavailability (monkey; 10 mg/kg): 58%
COc1ccc(C2CNC(=O)C2)cc1OC1CCCC1 (stereo not drawn)  solubility (water): < 1000 µg/mL
CC(C)(C)c1cc(C(C)(C)C)c(NC(=O)c2c[nH]c3ccccc3c2=O)cc1O  CLint (human liver microsomes): 78.8 µL/min/mg protein
Nc1cc(C(F)(F)F)c(-c2nc(N3CCOCC3)nc(N3CCOCC3)n2)cn1  remaining activity (STK39 (Homo sapiens, UniProt Q9UEW8); enzyme activity; 10 µM; reference: untreated): 100%
CN(C)C(=N)N=C(N)N  CLint passive liver (human liver failure patients): 0.012 mL/min
CN(C)C(=O)N[C@H]1CC[C@H](CCN2CCN(c3cccc(Cl)c3Cl)CC2)CC1  AUC(0-24 h) (Japanese patients; 6 mg once daily, Day 84): 358 ng·h/mL
Nc1ccn([C@H]2CC[C@@H](CO)O2)c(=O)n1  oral bioavailability (human; 1.5 mg): > 80%
Cc1cc(C)c(CNC(=O)c2cc(Cl)c3c(c2C)O[C@@](C)([C@H]2CC[C@H](N(C)C)CC2)O3)c(=O)[nH]1  AUC(0-inf) (human, plasma; oral, 50 mg single dose, study, geometric mean): 1660 ng·h/mL
N[C@@H](CC(=O)N1CCn2c(nnc2C(F)(F)F)C1)Cc1cc(F)c(F)cc1F  free Cmax (human): 442 nM
Nc1ccn([C@@H]2O[C@H](CO)[C@@H](O)C2(F)F)c(=O)n1  grade 3-4 thrombocytopenia incidence (metastatic pancreatic cancer patients; dose not given): 9%
CCCCCCCCCCCCCCCC(=O)N[C@@H](CCC(=O)NCCCC[C@@H]1NC(=O)[C@H]([C@@H](C)CC)NC(=O)[C@@H](NC(=O)[C@@H]2CCCN2C(=O)[C@H](Cc2ccccc2)NC(=O)[C@H](Cc2c[nH]cn2)NC(=O)[C@@H](NC(=O)[C@H](CC(=O)O)NC(=O)CC(C)C)[C@@H](C)O)CSSC[C@@H](C(=O)N[C@@H](CCCCN)C(N)=O)NC(=O)CNC(=O)[C@H](CCCCN)NC(=O)[C@H](CO)NC(=O)[C@H](CCCNC(=N)N)NC(=O)[C@@H]2CCCN2C(=O)[C@H](CCC(=O)O)NC(=O)[C@H](Cc2ccccc2)NC1=O)C(=O)O  elimination half-life (cynomolgus monkey; subcutaneous, 0.3 mg/kg): ~24 h
COC(=O)N[C@H](C(=O)N[C@@H](Cc1ccccc1)[C@@H](O)CN(Cc1ccc(-c2ccccn2)cc1)NC(=O)[C@@H](NC(=O)OC)C(C)(C)C)C(C)(C)C  Cmax (plasma; concentration not given, total, steady state): 7660 nM
CC1(C)S[C@@H]2[C@H](NC(=O)[C@H](N)c3ccccc3)C(=O)N2[C@H]1C(=O)O  MIC (Pseudomonas aeruginosa; clinical isolate RKI-No_21/11): > 16 µg/mL
CC(C)(CO)c1cc2cc(NC(=O)C3(c4ccc5c(c4)OC(F)(F)O5)CC3)c(F)cc2n1C[C@@H](O)CO  fraction absorbed (human): 0.82
c1ccc2c(c1)ccc1ccccc12  amount in tissue (zebrafish embryos, whole embryo; 445.6 ng/well, 48 hpf, single exposure): 22.9 ng/well and 18.5 ng/well and 20 ng/well
Cc1cn([C@H]2C=C[C@@H](CO)O2)c(=O)[nH]c1=O  oral bioavailability (human; 2.67 mg/kg): > 80%
Nc1ccccc1NC(=O)c1ccc(CNC(=O)OCc2cccnc2)cc1  solubility (water): < 1000 µg/mL
C[C@@H](O[C@H]1OCCN(Cc2n[nH]c(=O)[nH]2)[C@H]1c1ccc(F)cc1)c1cc(C(F)(F)F)cc(C(F)(F)F)c1  solubility (FaSSIF; literature value): 5.4 µg/mL (≈ 10.1 µM)
N#C[C@@]1(c2ccc3c(N)ncnn23)O[C@H](CO)[C@@H](O)[C@H]1O  half-life (dog; oral, 5 mg/kg, solution, unadjusted NCATS data): 5.76 h
CCc1cc(C(N)=S)ccn1  solubility (water): < 1000 µg/mL
CCCOc1ccc(S(=O)(=O)N2CCN(CCO)CC2)cc1-c1nc2c(CCC)cn(CC)c2c(=O)[nH]1  pulse rate change (healthy male volunteers; dose not given, without alcohol): 5.7 bpm
CCCS(=O)(=O)Nc1ccc(F)c(C(=O)c2c[nH]c3ncc(-c4ccc(Cl)cc4)cc23)c1F  volume of distribution (mice, average weight 30 g; dose not given): 7.9 mL
C[C@@H](O)[C@H]1C(=O)N2C(C(=O)O)=C(S[C@@H]3CN[C@H](C(=O)N(C)C)C3)[C@H](C)[C@H]12  fraction excreted in urine (human patients): 48%
COc1cc2nc(N(C)CCCNC(=O)C3CCCO3)nc(N)c2cc1OC (stereo not drawn)  solubility (water): < 1000 µg/mL
CNCc1cc(-c2ccccc2F)n(S(=O)(=O)c2cccnc2)c1  Tmax (human; 20 mg, single dose, fasted): 1 h
CNC(C)C1CCC(N)C(OC2C(N)CC(N)C(OC3OCC(C)(O)C(NC)C3O)C2O)O1 (stereo not drawn)  MIC (Pseudomonas aeruginosa; clinical isolate RKI-No_21/11): > 8 µg/mL
O=C(O)CN1CCNCCN(CC(=O)O)CCNCC1  log KH3 (0.1 M KCl): 4.06
O=C(O)c1cc(/N=N/c2ccc(S(=O)(=O)Nc3ccccn3)cc2)ccc1O  solubility (water): < 1000 µg/mL
CNC(=O)c1cc(Oc2ccc(NC(=O)Nc3ccc(Cl)c(C(F)(F)F)c3)c(F)c2)ccn1  solubility (FaSSIF; literature value): 15.6 µg/mL (≈ 32.3 µM)
COc1ccc2[nH]c([S+]([O-])Cc3ncc(C)c(OC)c3C)nc2c1 (stereo not drawn)  Vd (human): 20 to 25 L
CN1CCN(CCCCN2C(=O)CN(/N=C/c3ccc(-c4ccc(Cl)cc4)o3)C2=O)CC1  free Cmax (human): 70 nM
C#C[C@]1(O)CC[C@H]2[C@@H]3CCC4=CC(=NO)CC[C@@H]4[C@H]3CC[C@@]21CC (mixture of isomers)  Cmax, mean (human, fed; 0.18 mg norgestimate, single dose): 0.657 ng/mL
Cc1nccn1CC1CCc2c(c3ccccc3n2C)C1=O (stereo not drawn)  free Cmax (human): 93.9 nM
CC(C)n1c(Nc2cccnc2)nc2cnc(Nc3ccc(N4CCN(C)CC4)cc3)nc21  accumulation ratio of AUC (human relapsed or refractory AML; 20 to 310 mg/day, multiple doses): 0.8
Cc1c(O)cccc1C(=O)N[C@@H](CSc1ccccc1)[C@H](O)CN1C[C@H]2CCCC[C@H]2C[C@H]1C(=O)NC(C)(C)C  Cmax (plasma; concentration not given, total, steady state): 5000 nM
CCn1cc(C(=O)O)c(=O)c2cc(F)c(N3CCNCC3)nc21  free Cmax (plasma): 14000 nM
CCN(CC)CCNC(=O)c1c(C)[nH]c(/C=C2\C(=O)Nc3ccc(F)cc32)c1C  crossover pressure (supercritical CO2): 150 to 170 bar

A few entries again:
COc1cc2nc(N(C)CCCNC(=O)C3CCCO3)nc(N)c2cc1OC (stereo not drawn)  solubility (water): < 1000 µg/mL
CNCc1cc(-c2ccccc2F)n(S(=O)(=O)c2cccnc2)c1  Tmax (human; 20 mg, single dose, fasted): 1 h
CNC(C)C1CCC(N)C(OC2C(N)CC(N)C(OC3OCC(C)(O)C(NC)C3O)C2O)O1 (stereo not drawn)  MIC (Pseudomonas aeruginosa; clinical isolate RKI-No_21/11): > 8 µg/mL
O=C(O)CN1CCNCCN(CC(=O)O)CCNCC1  log KH3 (0.1 M KCl): 4.06
O=C(O)c1cc(/N=N/c2ccc(S(=O)(=O)Nc3ccccn3)cc2)ccc1O  solubility (water): < 1000 µg/mL
